{"data": "Measured values pooled from the literature", "note": "Numbered parts are unrelated; each lists some results of a single study.", "UniProt P62344, sequence (whole entry, looked up)": "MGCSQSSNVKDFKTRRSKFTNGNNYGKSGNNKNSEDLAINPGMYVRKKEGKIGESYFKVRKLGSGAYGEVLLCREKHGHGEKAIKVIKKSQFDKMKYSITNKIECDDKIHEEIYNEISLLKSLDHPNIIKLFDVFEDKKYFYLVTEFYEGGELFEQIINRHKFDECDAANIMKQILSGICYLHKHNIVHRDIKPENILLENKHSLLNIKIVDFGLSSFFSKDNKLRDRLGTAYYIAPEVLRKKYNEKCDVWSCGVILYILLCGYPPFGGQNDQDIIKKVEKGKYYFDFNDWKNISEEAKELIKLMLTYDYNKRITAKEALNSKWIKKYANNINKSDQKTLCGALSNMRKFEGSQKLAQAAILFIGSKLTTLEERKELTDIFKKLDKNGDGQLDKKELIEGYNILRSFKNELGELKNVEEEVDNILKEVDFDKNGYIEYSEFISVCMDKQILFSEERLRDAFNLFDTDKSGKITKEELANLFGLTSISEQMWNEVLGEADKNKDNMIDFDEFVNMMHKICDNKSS", "UniProt P31645, sequence (whole entry, looked up)": "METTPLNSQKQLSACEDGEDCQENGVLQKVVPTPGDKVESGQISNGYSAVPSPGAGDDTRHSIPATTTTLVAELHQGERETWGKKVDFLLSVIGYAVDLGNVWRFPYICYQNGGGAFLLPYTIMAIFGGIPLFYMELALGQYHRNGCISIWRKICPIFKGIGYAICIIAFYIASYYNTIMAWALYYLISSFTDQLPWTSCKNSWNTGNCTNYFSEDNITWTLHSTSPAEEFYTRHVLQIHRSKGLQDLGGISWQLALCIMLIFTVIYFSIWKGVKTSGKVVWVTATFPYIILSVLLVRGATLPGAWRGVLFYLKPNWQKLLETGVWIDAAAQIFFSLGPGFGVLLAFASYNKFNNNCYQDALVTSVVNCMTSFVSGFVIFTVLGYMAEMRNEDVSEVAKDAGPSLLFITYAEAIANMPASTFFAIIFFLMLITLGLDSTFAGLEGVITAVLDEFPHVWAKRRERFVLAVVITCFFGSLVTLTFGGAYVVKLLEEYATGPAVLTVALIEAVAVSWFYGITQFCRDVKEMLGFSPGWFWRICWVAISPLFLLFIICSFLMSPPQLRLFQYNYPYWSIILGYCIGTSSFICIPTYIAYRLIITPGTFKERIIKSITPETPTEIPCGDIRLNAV"}
{"data": "Sample 1", "organism": "Plasmodium berghei", "mode": "inhibitor", "cells": "Huh-7", "strain": "GFP-expressing, liver stage", "concentration": "10 µM", "time": "24 h", "relative to": "untreated control"}
{"Compound": "Oc1ccc(Cl)cc1", "infection rate [%]": 90.7}
{"Compound": "NC(=O)CN1CCCC1=O", "infection rate [%]": 96.8}
{"Compound": "CN(C)C(=S)SSC(=S)N(C)C", "infection rate [%]": 16.7}
{"Compound": "CNC(C)C(O)c1ccccc1 (stereo not shown)", "infection rate [%]": 102}
{"Compound": "COP(=S)(OC)Oc1cc(Cl)c(Cl)cc1Cl", "infection rate [%]": 98.4}
{"data": "Sample 2", "organism": "Sarcocystis neurona", "effect on": "parasite activity", "concentration": "10 µM", "time": "96 h"}
{"SMILES": "CC(O)(CS(=O)(=O)c1ccc(F)cc1)C(=O)Nc1ccc(C#N)c(C(F)(F)F)c1 (stereo not shown)", "activity class": "inactive"}
{"SMILES": "Oc1ccc2c3c1O[C@H]1[C@@H](O)CC[C@@]4(O)[C@@H](C2)N(CC2CCC2)CC[C@]314", "activity class": "inactive"}
{"SMILES": "CC[C@@H](C(N)=O)N1CCCC1=O", "activity class": "inactive"}
{"SMILES": "C[C@]12CC[C@H](O)CC1=CC[C@@H]1[C@@H]2CC[C@]2(C)C(=O)CC[C@@H]12", "activity class": "inactive"}
{"SMILES": "NCCc1ccccn1", "activity class": "inactive"}
{"SMILES": "COc1cc2c(cc1OC)[C@@]13CCN4CC5=CCO[C@H]6CC(=O)N2[C@H]1[C@H]6[C@H]5C[C@H]43", "activity class": "inactive"}
{"SMILES": "NC(=NCc1ccc(Cl)cc1)SCCCc1cnc[nH]1", "activity class": "inactive"}
{"SMILES": "C=CCN1CC[C@]23c4c5ccc(O)c4O[C@H]2C(=O)CC[C@@]3(O)[C@H]1C5", "activity class": "inactive"}
{"data": "Sample 3", "cell line": "mouse MPNST tumor cells", "method": "high-content nuclear imaging", "measured": "cell number", "concentration": "10 µM", "time": "12 h", "setting": "mean of 2 replicates", "relative to": "plate mean", "reading": "higher = more cells"}
{"SMILES": "CN1CCc2cccc(Cl)c2CC1", "nuclei count [z-score]": 1.45}
{"SMILES": "Cc1ncc(CN2CC=C(c3ccccc3)CC2)c(N)n1", "nuclei count [z-score]": 2.05}
{"SMILES": "OC(c1ccccc1)(c1ccccc1)C1CCNCC1", "nuclei count [z-score]": 2.83}
{"SMILES": "O=C(CCCN1CCC(n2c(=O)[nH]c3ccccc32)CC1)c1ccc(F)cc1", "nuclei count [z-score]": 2.46}
{"SMILES": "CCC1(CC)C(=O)C=CNC1=O", "nuclei count [z-score]": 0.626}
{"SMILES": "CC(=O)O[C@H]1C[C@H](O[C@H]2[C@@H](O)C[C@H](O[C@H]3[C@@H](O)C[C@H](O[C@H]4CC[C@@]5(C)[C@H](CC[C@@H]6[C@@H]5C[C@@H](O)[C@]5(C)[C@@H](C7=CC(=O)OC7)CC[C@]65O)C4)O[C@@H]3C)O[C@@H]2C)O[C@H](C)[C@H]1O[C@@H]1O[C@H](CO)[C@@H](O)[C@H](O)[C@H]1O", "nuclei count [z-score]": 0.324}
{"SMILES": "O=C1CN=C(c2cccc(Br)c2)c2oc3ccccc3c2N1", "nuclei count [z-score]": -2.1}
{"SMILES": "O[C@H]1[C@H](O)[C@@H](O)CN2CC[C@H](O)[C@H]12", "nuclei count [z-score]": 0.154}
{"data": "Other studies, line by line", "SLC6A3": "Sodium-dependent dopamine transporter (SLC6A3, Homo sapiens, UniProt Q01959)", "UniProt Q01959, sequence (whole entry, looked up)": "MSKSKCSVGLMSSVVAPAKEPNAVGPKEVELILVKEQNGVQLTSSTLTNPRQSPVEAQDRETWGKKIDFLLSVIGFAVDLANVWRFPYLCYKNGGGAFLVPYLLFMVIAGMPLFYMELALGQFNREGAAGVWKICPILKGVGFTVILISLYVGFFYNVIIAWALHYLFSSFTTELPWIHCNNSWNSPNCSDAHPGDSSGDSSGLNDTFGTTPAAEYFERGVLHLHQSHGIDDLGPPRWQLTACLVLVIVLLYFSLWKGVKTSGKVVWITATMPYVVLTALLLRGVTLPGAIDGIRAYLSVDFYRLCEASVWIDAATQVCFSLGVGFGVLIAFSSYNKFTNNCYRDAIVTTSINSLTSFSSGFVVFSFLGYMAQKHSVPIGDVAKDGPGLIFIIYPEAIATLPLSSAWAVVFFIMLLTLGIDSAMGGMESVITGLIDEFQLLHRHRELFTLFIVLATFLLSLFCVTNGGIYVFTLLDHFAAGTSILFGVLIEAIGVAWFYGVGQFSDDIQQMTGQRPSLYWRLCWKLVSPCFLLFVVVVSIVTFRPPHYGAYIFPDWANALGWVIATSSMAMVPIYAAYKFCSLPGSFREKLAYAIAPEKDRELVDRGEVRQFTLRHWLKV"}
{"SMILES": "c1ccc(N2CCN(Cc3nc4ccccc4[nH]3)CC2)nc1", "target": "SLC6A4 (Homo sapiens, UniProt P31645)", "test": "binding, radioligand binding", "endpoint": "Ki", "value": "> 10 µM"}
{"SMILES": "CC(=O)Nc1c(C(C)=O)c(=O)n(C)c2nc(-c3ccc(Cl)cc3Cl)c(-c3ccc(Cl)cc3)cc12", "target": "CDPK1 (Plasmodium falciparum, UniProt P62344)", "test": "cell-free assay, competition with immobilised ligand", "setting": "1 µM", "endpoint": "remaining binding", "value": "95%"}
{"SMILES": "O=C1c2ccc(Nc3ccc(F)cc3F)cc2CCc2ccc(OC[C@H](O)CO)cc21", "target": "SLC6A3", "test": "binding, radioligand binding", "endpoint": "Ki", "value": "> 10 µM"}
{"SMILES": "O=C(Nc1ccc(-n2nc(-c3cccnc3)cc2C(F)(F)F)cn1)c1ccc(-c2ccccc2)c(F)c1", "target": "SLC6A3", "test": "binding, radioligand binding", "endpoint": "Ki", "value": "> 10 µM"}
